Values quoted from earlier work, collected from citations in different studies.
± marks the error that the study gave.

Molecule | target | assay | system | conditions | scale | quantity | result
C[C@]12CC[C@@H]3c4ccc(O)cc4CC[C@H]3[C@@H]1CC1(CCCC1)C2=O | oestrogen receptor alpha | binding, competition binding | – | – | – | EC50 | 127 nM
CC(=O)O[C@H]1C(=O)[C@@]2(C)[C@H]([C@H](OC(=O)c3ccccc3)[C@]3(O)C[C@H](OC(=O)[C@H](O)[C@@H](NC(=O)c4ccccc4)c4ccccc4)C(C)=C1C3(C)C)[C@]1(OC(C)=O)CO[C@@H]1C[C@@H]2O | tubulin | microtubule assembly | – | concentration not given | – | critical concentration | 4.2 ± 0.2 µM
Yeast DNA polymerase alpha | replisome (yeast) | Ctf4-dependent association | yeast cells | – | – | salt concentration at loss of association | 300 mM
C[C@]12CC[C@@H]3c4ccc(O)cc4CC[C@H]3[C@@H]1CC[C@@H]2OC(=O)c1ccccc1 | oestrogen receptor alpha | binding, competition binding | – | – | – | EC50 | 26.9 nM
Cc1ccc([N+](=O)[O-])cc1S(=O)(=O)N(C)/N=C/c1cnc2ccc(Br)cn12 | mTORC2 | enzyme activity, inhibitor | – | with: ATP 10 µM | – | IC50 | 160 nM
CCCS(=O)(=O)Nc1ccc(F)c(C(=O)c2c[nH]c3ncc(-c4ccc(Cl)cc4)cc23)c1F | RIPK2 | kinase activity, inhibitor | – | 10 µM | – | inhibition | ~96%
Cc1cc(C(C)Nc2ccccc2)c2oc(-c3ccncc3)cc(=O)c2c1 (centres unmarked) | mTORC1 | enzyme activity, inhibitor | – | with: 10 µM ATP | – | IC50 | > 100000 nM
CC(C)C1c2cc(C3CC3c3ccc4cc(C(=N)N)ccc4c3)ccc2CCN1C (centres unmarked) | acid-sensing ion channel | ion current | – | concentration not given, reported in literature | – | inhibition | inhibited
VDKPPYLPRPRPPROIYNO-NH2 (C-amide) | Escherichia coli BL21(DE3)RIL ribosome | fluorescence polarization | peptide | – | – | Kd | 450 ± 30 nM
Cc1[nH]nc(C(F)(F)F)c1Cc1sc2c(c1C(=O)N1C[C@](C)(O)CO1)c(=O)n(C)c(=O)n2C(C)C | MCT1 | L-lactate uptake, inhibitor | 4T1 | concentration not given, after drug washout | – | time to full recovery of uptake | 12 h
COc1ccc2c(c1OC)N=C(NC(=O)c1cccnc1)N1CCN=C21 | ATR | kinase activity, inhibitor | – | with: 10 µM ATP | – | IC50 | 15000 nM
O=P(O)(O)OC[C@H]1O[C@H](OP(=O)(O)OP(=O)(O)O)[C@H](O)[C@@H]1O | HGPRT Trypanosoma cruzi isoform A | substrate, measured: GMP | – | 20 to 215 µM, with: guanine 70 µM | – | kcat | 32 s⁻¹
C[C@]12CC[C@H](O)CC1=CC[C@@H]1[C@@H]2CC[C@]2(C)C(c3cccnc3)=CC[C@@H]12 | CYP17A1 | – | castration-resistant prostate cancer patients, post-docetaxel | dose not given | – | survival increase | 3.9 months
Oc1cc2c(cc1O)C(c1ccccc1)CNCC2 (centres unmarked) | dopamine D1 receptor (bovine) | agonist | retina | concentration not given | – | intrinsic activity | 58%
Cc1cc([C@H](C)Nc2ccccc2)c2oc(N3CCOCC3)cc(=O)c2c1 | phosphatidylinositol 4-phosphate 5-kinase type I beta | enzyme activity, inhibitor | – | with: 10 µM ATP | – | IC50 | > 100000 nM
C[C@@]12CC=C3c4ccc(O)cc4CC[C@@H]3[C@H]1CC[C@H]2O | oestrogen receptor alpha | binding, competition binding | – | – | – | EC50 | 16.3 nM

Molecule | target | assay | system | conditions | scale | quantity | result
O=c1[nH]c(=O)c2[nH]c(=O)c(=O)n(C[C@H](O)[C@H](O)[C@H](O)CO)c2[nH]1 | Bacillus subtilis lumazine synthase | enzyme kinetics | recombinant β60 capsid | pH 7.0, with: substrate 2 fixed, 1 varied | – | kcat | 0.0433 ± 0.00167 s⁻¹
C[C@]12CC[C@@H]3c4cc(C56CC7CC(CC(C7)C5)C6)c(O)cc4CC[C@H]3[C@@H]1CC[C@@H]2O | oestrogen receptor beta | binding, competition binding | – | – | – | EC50 | > 10000 nM
YRAL | HLA-DR1, human | circular dichroism | peptide | peptide-MHC complex | – | melting temperature | 71 °C
O=C(O[C@@H]1Cc2c(O)cc(O)cc2O[C@@H]1c1cc(O)c(O)c(O)c1)c1cc(O)c(O)c(O)c1 | proteasome chymotrypsin-like activity | – | tumour cells | – | – | inhibitory concentration | 1 to 10 µM
CSC[C@H]1CN(Cc2c[nH]c3c(N)ncnc23)C[C@@H]1O | MTA/SAH nucleosidase, Escherichia coli | inhibitor | – | – | – | Ki | 0.005 nM
Cc1csc(N(C)C(=O)CSc2ccc(-c3ccccc3)nn2)n1 | off-target panel | – | – | 10 µM | – | inhibition | ≤ 50%
[Sr+2] | BK channel (rat) | channel activation, activator | skeletal muscle T-tubule in lipid bilayer | – | reference: Ca2+ | EC50 relative to Ca2+ | 161
COc1cc2c(cc1C13CC4CC(CC(C4)C1)C3)[C@H]1CC[C@]3(C)[C@@H](O)CC[C@H]3[C@@H]1CC2 | oestrogen receptor beta | binding, competition binding | – | – | – | EC50 | > 10000 nM
COCCOC(=O)C1=C(C)NC(C)=C(C(=O)OC(C)C)C1c1cccc([N+](=O)[O-])c1 (centres unmarked) | human KCa3.1 | – | – | – | reference: KCa3.1 IC50 over CaV1.x IC50 | selectivity ratio | > 200 fold
Oc1cccc(-c2nc(N3CCOCC3)c3oc4ncccc4c3n2)c1 | phosphatidylinositol 4-phosphate 5-kinase type I beta | enzyme activity, inhibitor | – | with: 10 µM ATP | – | IC50 | > 100000 nM
Cc1nc2ccc(CN(C)c3ccc(C(=O)N[C@@H](CCC(=O)O)C(=O)O)s3)cc2c(=O)[nH]1 | thymidylate synthase | enzyme activity, inhibitor | – | – | reference: polyglutamate over monoglutamate | potency increase | 60 fold
C[C@]12CCC[C@@H]1[C@H]1CCc3cc(O)ccc3[C@@H]1CC2 (single isomer, unassigned) | oestrogen receptor beta | binding, competition binding | – | – | – | EC50 | 18.7 nM
O=C(Nc1n[nH]c2cc(-c3cccc(NS(=O)(=O)c4cccc(F)c4)c3)ccc12)C1CC1 | CDKL2 (human) | DiscoverX scanMAX | – | 1 µM | reference: control | remaining binding | 55 to 60%
NCCC(=O)N[C@@H](Cc1cnc[nH]1)C(=O)O | PEPT2, rat | uptake, substrate | rat choroid plexus primary cells | – | – | Km | 34 µM
Cc1c(O)c(C23CC4CC(CC(C4)C2)C3)cc2c1CC[C@@H]1[C@@H]2CC[C@]2(C)C(=O)CC[C@@H]12 | oestrogen receptor alpha | binding, competition binding | – | – | – | EC50 | > 10000 nM
CCCCCCCC(=O)OCC(COC(=O)CCCCCCC)OC(=O)CCCCCCC | human FXR alpha | antagonist, Tox21 qHTS or literature | – | concentration not given | – | activity call | inactive

Repeated from above:
Molecule | target | assay | system | conditions | scale | quantity | result
O=c1[nH]c(=O)c2[nH]c(=O)c(=O)n(C[C@H](O)[C@H](O)[C@H](O)CO)c2[nH]1 | Bacillus subtilis lumazine synthase | enzyme kinetics | recombinant β60 capsid | pH 7.0, with: substrate 2 fixed, 1 varied | – | kcat | 0.0433 ± 0.00167 s⁻¹
CCCCCCCC(=O)OCC(COC(=O)CCCCCCC)OC(=O)CCCCCCC | human FXR alpha | antagonist, Tox21 qHTS or literature | – | concentration not given | – | activity call | inactive
CCCS(=O)(=O)Nc1ccc(F)c(C(=O)c2c[nH]c3ncc(-c4ccc(Cl)cc4)cc23)c1F | RIPK2 | kinase activity, inhibitor | – | 10 µM | – | inhibition | ~96%
C[C@]12CC[C@@H]3c4ccc(O)cc4CC[C@H]3[C@@H]1CC[C@@H]2OC(=O)c1ccccc1 | oestrogen receptor alpha | binding, competition binding | – | – | – | EC50 | 26.9 nM
Yeast DNA polymerase alpha | replisome (yeast) | Ctf4-dependent association | yeast cells | – | – | salt concentration at loss of association | 300 mM
